{"data": "Measured values of several laboratories", "NOX1": "NADPH oxidase 1 (NOX1, Homo sapiens, UniProt Q9Y5S8)", "Chrna3/Chrnb2/Chrna6 with beta3 subunit": "Chrna3/Chrnb2/Chrna6, with beta3 subunit (Rattus norvegicus, UniProt P04757+P12390+P43143)", "NOX5": "NADPH oxidase 5 (NOX5, Homo sapiens, UniProt Q96PH1)", "Salicylate synthetase, Irp9": "Salicylate synthetase, Irp9 (Yersinia enterocolitica, UniProt Q9X9I8)", "ache": "Acetylcholinesterase (ache, Electrophorus electricus, UniProt O42275)", "Neuronal acetylcholine receptor; alpha3/beta2": "Neuronal acetylcholine receptor; alpha3/beta2 (Rattus norvegicus, UniProt P04757+P12390)", "note": "Lines come from different studies, so protocols differ. Numbers after ± are the reported error."}
{"SMILES": "C=C(C)[C@@H]1[C@H]2OC(=O)[C@@H]1[C@]1(O)C[C@H]3O[C@]34C(=O)O[C@H]2[C@]14C", "target": "GABRA1/GABRG2/Gabrb2 (Homo sapiens, UniProt P14867+P18507+P63138)", "assay": "chloride current, inhibitor, whole-cell voltage clamp", "test system": "L929", "conditions": "3 min preincubation, together with: GABA at EC90", "IC50": "7.98 µM"}
{"SMILES": "Cc1cccc2nc(Sc3ncnc4c3nnn4Cc3ccccc3)oc12", "target": "NOX1", "assay": "enzyme activity, inhibitor, Amplex Red", "test system": "cell-free membranes", "IC50": "> 100 µM"}
{"SMILES": "C[C@@H](Oc1cc[n+]([O-])c2ccccc12)c1cn(-c2ccc(Cl)cc2)nn1", "target": "guaB (Vibrio cholerae, UniProt Q9KTW3)", "assay": "enzyme activity, inhibitor", "conditions": "together with: 1 mM IMP", "IC50": "> 5 µM"}
{"SMILES": "COP(=O)(OC)O/C(C)=C1/CCOC1=O", "target": "ACHE (Homo sapiens, UniProt P22303)", "assay": "enzyme activity, inhibitor, Ellman", "conditions": "30 min, 25 °C", "IC50": "> 1000 µM"}
{"SMILES": "CC(C)C[C@@H]1NC(=O)[C@H](CCC(=O)O)NC(=O)[C@@H]2CCCN2C(=O)[C@H](Cc2c[nH]cn2)NC(=O)[C@H](CC(N)=O)NC(=O)[C@H]([C@@H](C)O)NC(=O)[C@H](CO)NC(=O)[C@@H]2CSSC[C@H](NC(=O)CN)C(=O)N[C@@H](CSSC[C@@H](C(N)=O)NC1=O)C(=O)N[C@@H](CO)C(=O)N[C@@H](Cc1c[nH]cn1)C(=O)N1CCC[C@H]1C(=O)N[C@@H](C)C(=O)N2", "target": "Chrna3/Chrnb2/Chrna6 with beta3 subunit", "assay": "ion current, antagonist, two-electrode voltage clamp", "test system": "Xenopus laevis oocytes", "conditions": "together with: 100 µM acetylcholine", "IC50": "0.029 µM"}
{"SMILES": "c1ccc(Cn2nnc3c(Sc4nc5ncccc5o4)ncnc32)cc1", "target": "NOX5", "assay": "enzyme activity, inhibitor, Amplex Red", "test system": "cell-free membranes", "IC50": "3.6 ± 0.3 µM"}
{"SMILES": "C[As](SC[C@H](NC(=O)CC[C@H](N)C(=O)O)C(=O)NCC(=O)O)SC[C@H](NC(=O)CC[C@H](N)C(=O)O)C(=O)NCC(=O)O", "target": "NR3C1 (Homo sapiens, UniProt P04150)", "assay": "DNA binding, fluorescence polarization", "conditions": "together with: FITC-labelled GRE DNA", "IC50": "0.5 µM"}
{"SMILES": "Brc1ccc2nc(Sc3ncnc4c3nnn4Cc3ccccc3)oc2c1", "target": "NADPH oxidase 2 (CYBB, Homo sapiens, UniProt P04839)", "assay": "enzyme activity, inhibitor, MCLA chemiluminescence", "test system": "cell-free membranes", "IC50": "> 100 µM"}
{"SMILES": "CCC(=N\\O)/C(C)=C/c1ccc(F)cc1", "target": "Trpa1 (Mus musculus, UniProt Q8BLA8)", "assay": "calcium influx, antagonist, FlexStation calcium", "test system": "HEK-293T transfected", "conditions": "together with: CS gas at EC50", "IC50": "0.47 µM"}
{"SMILES": "COc1ccc2nc(Sc3ncnc4c3nnn4Cc3ccccc3)oc2c1", "target": "NOX5", "assay": "enzyme activity, inhibitor, Amplex Red", "test system": "cell-free membranes", "IC50": "1.6 ± 0.2 µM"}
{"SMILES": "CC(C)C[C@@H]1NC(=O)[C@H](CCC(=O)O)NC(=O)[C@@H]2CCCN2C(=O)[C@H](Cc2c[nH]cn2)NC(=O)[C@H](CCCCC(=O)O)NC(=O)[C@H](CC(C)C)NC(=O)[C@H](Cc2c[nH]cn2)NC(=O)[C@@H]2CSSC[C@H](NC(=O)CN)C(=O)N[C@@H](CSSC[C@@H](C(N)=O)NC1=O)C(=O)N[C@@H](CO)C(=O)N[C@@H](Cc1c[nH]cn1)C(=O)N1CCC[C@H]1C(=O)N[C@@H](C)C(=O)N2", "target": "Neuronal acetylcholine receptor; alpha3/beta4 (Rattus norvegicus, UniProt P04757+P12392)", "assay": "ACh-evoked current, antagonist, two-electrode voltage clamp", "test system": "Xenopus laevis oocytes", "conditions": "together with: ACh 300 µM", "IC50": "0.501 µM"}
{"SMILES": "O=C(O)c1cc(S(=O)(=O)Nc2ccccc2C(=O)O)ccc1Br", "target": "Salicylate synthetase, Irp9", "assay": "salicylate production, inhibitor", "conditions": "pH 7.5, 25 °C, together with: chorismate 2 µM", "IC50": "> 160 µM"}
{"SMILES": "CCC(CC)O[C@@H]1C=C(C(=O)O)C[C@H](N=C(N)N)[C@H]1NC(=O)CF", "target": "Neuraminidase (Influenza B virus, UniProt C0LT34)", "assay": "neuraminidase activity, inhibitor", "IC50": "0.0031 µM"}
{"SMILES": "Clc1ccc2nc(Sc3ncnc4c3nnn4Cc3ccccc3)oc2c1", "target": "NOX1", "assay": "enzyme activity, inhibitor, Amplex Red", "test system": "cell-free membranes", "IC50": "> 100 µM"}
{"SMILES": "COc1ccc2cc([C@H](C)C(=O)OCc3ccc(OC(=O)OCCC(C)(C)C)cc3)ccc2c1", "target": "ache", "assay": "enzyme activity, inhibitor, Ellman", "IC50": "1.74 ± 1.01 µM"}
{"SMILES": "Fc1ccc2nc(Sc3ncnc4c3nnn4Cc3ccccc3)oc2c1", "target": "NOX1", "assay": "enzyme activity, inhibitor, Amplex Red", "test system": "cell-free membranes", "IC50": "> 100 µM"}
{"SMILES": "CN(CCCl)Cc1cc(Cl)c(NC2=NCCN2)c(Cl)c1", "target": "KCNJ2 (Homo sapiens, UniProt P63252)", "assay": "inward current, inhibitor, automated patch clamp", "conditions": "15 min, single concentration, at -120 mV", "IC50": "46 µM"}
{"SMILES": "COc1ccc2c(c1)c(CC(=O)OCc1ccc(OC(=O)OCC[Si](C)(C)C)cc1)c(C)n2C(=O)c1ccc(Cl)cc1", "target": "ache", "assay": "enzyme activity, inhibitor, Ellman", "IC50": "0.72 ± 0.13 µM"}
{"SMILES": "CC[C@H](C)[C@@H]1NC(=O)[C@H](CCC(=O)O)NC(=O)[C@@H]2CCCN2C(=O)[C@H](Cc2c[nH]cn2)NC(=O)[C@H](CC(N)=O)NC(=O)[C@H](CC(C)C)NC(=O)[C@H](Cc2c[nH]cn2)NC(=O)[C@@H]2CSSC[C@H](NC(=O)CN)C(=O)N[C@@H](CSSC[C@@H](C(N)=O)NC1=O)C(=O)N[C@@H](CO)C(=O)N[C@@H](Cc1c[nH]cn1)C(=O)N1CCC[C@H]1C(=O)N[C@@H](C)C(=O)N2", "target": "Chrna3/Chrnb2/Chrna6 with beta3 subunit", "assay": "ion current, antagonist, two-electrode voltage clamp", "test system": "Xenopus laevis oocytes", "conditions": "together with: 100 µM acetylcholine", "IC50": "0.00086 µM"}
{"SMILES": "O=C(O)c1ccccc1[As](=O)(O)O", "target": "SMPD1 (Homo sapiens, UniProt P17405)", "assay": "enzyme activity, inhibitor", "conditions": "pH 5.0, together with: HMU-PC substrate", "IC50": "0.27 µM"}
{"SMILES": "CNC(=O)Oc1cccc2ccccc12", "target": "Ace (Anopheles gambiae, UniProt Q869C3)", "assay": "enzyme activity, inhibitor, Ellman", "conditions": "10 min, room temperature, together with: acetylthiocholine", "IC50": "0.0725 µM"}
{"SMILES": "CC(C)C[C@@H]1NC(=O)[C@H](CCC(=O)O)NC(=O)[C@@H]2CCCN2C(=O)[C@H](Cc2c[nH]cn2)NC(=O)[C@H](CCCCCC(=O)O)NC(=O)[C@H](CC(C)C)NC(=O)[C@H](Cc2c[nH]cn2)NC(=O)[C@@H]2CSSC[C@H](NC(=O)CN)C(=O)N[C@@H](CSSC[C@@H](C(N)=O)NC1=O)C(=O)N[C@@H](CO)C(=O)N[C@@H](Cc1c[nH]cn1)C(=O)N1CCC[C@H]1C(=O)N[C@@H](C)C(=O)N2", "target": "Neuronal acetylcholine receptor; alpha3/beta2", "assay": "ion current, antagonist, two-electrode voltage clamp", "test system": "Xenopus laevis oocytes", "conditions": "together with: 100 µM acetylcholine", "IC50": "0.00128 µM"}
{"SMILES": "O=C(O)c1cccc(S(=O)(=O)Nc2ccccc2C(=O)O)c1", "target": "Salicylate synthetase, Irp9", "assay": "pyruvate production, inhibitor", "conditions": "25 °C, together with: chorismate 10 µM", "IC50": "> 160 µM"}
{"SMILES": "c1ccc(Cn2nnc3c(Sc4nc5ccccc5[nH]4)ncnc32)cc1", "target": "NADPH oxidase 4 (NOX4, Homo sapiens, UniProt Q9NPH5)", "assay": "enzyme activity, inhibitor, Amplex Red", "test system": "cell-free membranes", "IC50": "> 100 µM"}
{"SMILES": "CC(C)C[C@@H]1NC(=O)[C@H](CCC(=O)O)NC(=O)[C@@H]2CCCN2C(=O)[C@H](Cc2c[nH]cn2)NC(=O)[C@H](CC(=O)O)NC(=O)[C@H](C(C)C)NC(=O)[C@H](CO)NC(=O)[C@@H]2CSSC[C@H](NC(=O)CN)C(=O)N[C@@H](CSSC[C@@H](C(N)=O)NC1=O)C(=O)N[C@@H](CO)C(=O)N[C@@H](Cc1c[nH]cn1)C(=O)N1CCC[C@H]1C(=O)N[C@@H](C)C(=O)N2", "target": "Neuronal acetylcholine receptor; alpha3/beta2", "assay": "ion current, antagonist, two-electrode voltage clamp", "test system": "Xenopus laevis oocytes", "conditions": "together with: 100 µM acetylcholine", "IC50": "0.054 µM"}
{"SMILES": "CC(Cc1ccc(O)cc1)NCC(O)c1cc(O)cc(O)c1 (stereo not shown)", "target": "SLC18A2 (Homo sapiens, UniProt Q05940)", "assay": "monoamine uptake, inhibitor", "IC50": "0.333 µM"}
{"SMILES": "CC(C)C[C@@H]1NC(=O)[C@H](CCC(=O)O)NC(=O)[C@@H]2CCCN2C(=O)[C@H](Cc2c[nH]cn2)NC(=O)[C@H](CC(N)=O)NC(=O)[C@H](C(C)C)NC(=O)[C@H](Cc2c[nH]cn2)NC(=O)[C@@H]2CSSC[C@H](NC(=O)CN)C(=O)N[C@@H](CSSC[C@@H](C(N)=O)NC1=O)C(=O)N[C@@H](CO)C(=O)N[C@@H](Cc1c[nH]cn1)C(=O)N1CCC[C@H]1C(=O)N[C@@H](C)C(=O)N2", "target": "Neuronal acetylcholine receptor; alpha3/beta2", "assay": "ion current, antagonist, two-electrode voltage clamp", "test system": "Xenopus laevis oocytes", "conditions": "together with: 100 µM acetylcholine", "IC50": "0.0013 µM"}
{"SMILES": "O=[N+]([O-])c1cc(S(=O)(=O)c2cc([N+](=O)[O-])c(O)c([N+](=O)[O-])c2)cc([N+](=O)[O-])c1O", "target": "Salicylate synthetase, Irp9", "assay": "salicylate production, inhibitor", "conditions": "pH 7.5, 25 °C, together with: chorismate 2 µM", "IC50": "80 ± 20 µM"}
{"SMILES": "CC(C)c1ccc2nc(Sc3ncnc4c3nnn4Cc3ccccc3)oc2c1", "target": "NOX5", "assay": "enzyme activity, inhibitor, Amplex Red", "test system": "cell-free membranes", "IC50": "0.3 ± 0.1 µM"}
{"SMILES": "CC(C)[C@@H]1NC(=O)[C@H](CO)NC(=O)[C@@H]2CSSC[C@H](NC(=O)CN)C(=O)N[C@@H](CSSC[C@@H](C(N)=O)NC(=O)[C@H](CCCNC(=N)N)NC(=O)[C@H](CCC(=O)O)NC(=O)[C@@H]3CCCN3C(=O)[C@H](Cc3c[nH]cn3)NC(=O)[C@H](CC(N)=O)NC1=O)C(=O)N[C@@H](CO)C(=O)N[C@@H](Cc1c[nH]cn1)C(=O)N1CCC[C@H]1C(=O)N[C@@H](C)C(=O)N2", "target": "Neuronal acetylcholine receptor; alpha3/beta2", "assay": "ion current, antagonist, two-electrode voltage clamp", "test system": "Xenopus laevis oocytes", "conditions": "together with: 100 µM acetylcholine", "IC50": "0.161 µM"}
{"SMILES": "CCCCCCCCCC(=O)c1c(O)nc(OC)c(OC)c1O", "target": "Succinate dehydrogenase complex (complex II) (Rattus norvegicus, UniProt P21913+Q641Z9+Q6PCT8)", "assay": "enzyme activity, inhibitor", "test system": "isolated heart mitochondria", "conditions": "together with: succinate and coenzyme Q2 with DCPIP", "IC50": "0.0099 ± 0.0019 µM"}
{"note": "A few entries again:"}
{"SMILES": "CC(C)c1ccc2nc(Sc3ncnc4c3nnn4Cc3ccccc3)oc2c1", "target": "NOX5", "assay": "enzyme activity, inhibitor, Amplex Red", "test system": "cell-free membranes", "IC50": "0.3 ± 0.1 µM"}
{"SMILES": "Fc1ccc2nc(Sc3ncnc4c3nnn4Cc3ccccc3)oc2c1", "target": "NOX1", "assay": "enzyme activity, inhibitor, Amplex Red", "test system": "cell-free membranes", "IC50": "> 100 µM"}
